# Assay results collected from several papers.
# A part holds a random share of what one study measured.

# Series 1 — technique: competition protein-binding microarray; form: double-stranded DNA, one strand shown; medium: in vitro; tested at: 2 µM; added: Pho4 competitor, 0.05 µM; reading: higher = stronger binding
# Target: Centromere-binding protein 1, full length, His-tagged (CBF1, Saccharomyces cerevisiae, UniProt P17106, residues 1-351)
# Sequence of UniProt P17106 (whole entry, looked up): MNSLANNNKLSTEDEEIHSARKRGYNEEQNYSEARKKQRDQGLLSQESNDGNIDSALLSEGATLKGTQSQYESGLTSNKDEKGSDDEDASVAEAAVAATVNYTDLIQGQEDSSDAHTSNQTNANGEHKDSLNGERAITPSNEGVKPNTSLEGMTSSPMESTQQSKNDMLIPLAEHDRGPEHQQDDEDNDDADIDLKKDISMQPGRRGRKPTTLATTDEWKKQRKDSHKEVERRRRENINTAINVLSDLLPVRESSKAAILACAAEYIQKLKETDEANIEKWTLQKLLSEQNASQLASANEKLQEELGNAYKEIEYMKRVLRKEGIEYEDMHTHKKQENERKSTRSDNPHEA
# Setting: whole 60-bp probe, lowest competitor level
Sequence,fluorescence intensity [a.u.]
CTTCTGTAAATTTGTCCGGTGGGTGGACGCGCCCCGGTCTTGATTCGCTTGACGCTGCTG,85.2
GCGCGAACAAACTTGGTCATGACAGCTCCACCGGCAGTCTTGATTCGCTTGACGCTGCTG,54.4
CTTTCCCGATCTTGCTATGTGGGTGTAGCACATTTGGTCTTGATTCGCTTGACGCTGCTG,83.6
CCTGGCACTCGCTATTTCGTGACGGCGTTCCAGGACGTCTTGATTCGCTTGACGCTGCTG,62.8
CTTCTGTAAATTTGTCACCGCACTTGACGCGCCCCGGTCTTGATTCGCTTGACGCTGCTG,78.4
TCATGAGATTGGATGATCGTGCCGATAGACTAGCAGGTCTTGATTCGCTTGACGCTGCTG,86.7
TGCGCAACAACTTGCCATGTGGGTGTATGTCTAGAAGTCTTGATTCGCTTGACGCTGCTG,90.7
GCAAACTTGTTATTGCACGTTAAGTTTTGGGCTCAAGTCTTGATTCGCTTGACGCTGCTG,120
AACTGTTTCAGAACAAACGTGGTCGTCCCAAGAAGTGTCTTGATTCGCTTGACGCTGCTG,93.2

# Series 2 — technique: RNA Bind-n-Seq; form: RNA; medium: in vitro; tested at: not given; setting: RNA with constant flanks, ends assumed; reference: input RNA pool; reading: higher = stronger binding
# Target: RING finger protein unkempt homolog, zinc fingers 1-6, GST-SBP tag (UNK, Homo sapiens, UniProt Q9C0B0, residues 30-357)
# Residues (chain): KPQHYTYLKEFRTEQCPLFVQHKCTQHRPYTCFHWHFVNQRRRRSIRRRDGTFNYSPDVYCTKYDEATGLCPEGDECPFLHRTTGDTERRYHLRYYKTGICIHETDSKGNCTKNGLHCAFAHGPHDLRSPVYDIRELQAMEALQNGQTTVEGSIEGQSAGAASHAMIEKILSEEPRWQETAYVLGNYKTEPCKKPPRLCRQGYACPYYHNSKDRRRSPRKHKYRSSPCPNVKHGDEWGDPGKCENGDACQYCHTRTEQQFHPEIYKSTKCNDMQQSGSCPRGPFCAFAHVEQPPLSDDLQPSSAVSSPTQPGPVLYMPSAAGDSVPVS
Sequence,bound/input enrichment
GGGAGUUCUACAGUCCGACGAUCACAGUUAGAAAGCAAAGUGUUAAAUGGAGAAGAUACUUGUUUUUAUUAAACAUUUUGAGAUUCCGAUAAACUACAUUUUAACUGAAUGUCUAAAGUGAUUAUCUUUUUUCCCCCCAAGUUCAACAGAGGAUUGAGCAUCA,0.222 ratio
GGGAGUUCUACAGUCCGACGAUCCCGUCUCAGCUUACCCACUCUUGACUCCUUUGAGCCUUUCAGAGGGGCAGUUUCUGGCCGCCGCAGCUUUUAUACUUUCACGGAAUUCCUUCAGUCCAGAGAGUUCUGGCAGCAGGCCGUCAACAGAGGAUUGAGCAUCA,0.1 ratio
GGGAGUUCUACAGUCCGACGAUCACUGUUGUUAAGCACUGUGUUCCAGACCGUGUCUGACUUAGUGUAACCUAGGAGAUUUUACCGUUUUAUUUUAAUGAAACCCUGAUUGACGCACAGCAGUGGGGAGAACAGCGUCUUUUACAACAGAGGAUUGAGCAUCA,2.1 ratio
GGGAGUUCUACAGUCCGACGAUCGCGGGCGCAGUGUUAUCCACACAGUGAAAUAAGACUGUCAGAAAAUUUCAGCCUCGUGGACCGUAAUUUUAAUGCCUGUACCACCUGUUUCUGGACAGUUCUCUUGGAGGAGCGAAGAAUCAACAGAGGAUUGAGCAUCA,0.179 ratio
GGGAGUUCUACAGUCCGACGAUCACCCUGGAAGAAGAAACAGUGAUGCUUGCAAUGACUCCAGAUGAUUUACAGGAGAAAGAAGCCGCUUAUUGUUCCACAUAUACACACUGUGAGAUUCAUCCCUCAAUGAUCCUUGGUGUCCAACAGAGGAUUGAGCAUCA,0.297 ratio

# Series 3 — technique: protein binding microarray; form: double-stranded DNA, one strand shown; medium: in vitro; tested at: not given; reference: not given; reading: higher = stronger binding
# Target: Histone acetyltransferase KAT6A, winged helix 1, GST fusion (KAT6A, Homo sapiens, UniProt Q92794, residues 1-85)
# Setting: 8-mer, flanks averaged, mean of 2 arrays, mostly near background
# Target sequence (chain): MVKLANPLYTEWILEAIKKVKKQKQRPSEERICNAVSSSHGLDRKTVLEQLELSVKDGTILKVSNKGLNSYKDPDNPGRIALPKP
Sequence,E-score
ACTCCCAT,-0.228
CCCTCCGA,-0.00445
GCGAAGTA,0.11
CCAAACAA,-0.0981
CGTAGCAC,0.102
ACCGGAAC,0.14
CACGGGTC,0.326
CTGCACAC,-0.21
CAGGATGA,-0.223

# Single results of other studies
Substance,target,assay,system,setting,scale,measurement,value
"PhoQ, residues 284 288 289 292 302 303 SSYNSA","PhoP, residues 12 14 15 18 19 NQFFI (Escherichia coli, UniProt P23836)","Sort-seq, refers to: YFP reporter",E. coli,"PhoQ-PhoP variant library, added: 10 µM Mg2+","reference: high Mg2+ state, higher = stronger signaling",fold induction,1.19

# Repeated from above (series 1):
Sequence,fluorescence intensity [a.u.]
CTTCTGTAAATTTGTCACCGCACTTGACGCGCCCCGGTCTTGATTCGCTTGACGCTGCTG,78.4
TCATGAGATTGGATGATCGTGCCGATAGACTAGCAGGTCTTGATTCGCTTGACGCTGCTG,86.7
TGCGCAACAACTTGCCATGTGGGTGTATGTCTAGAAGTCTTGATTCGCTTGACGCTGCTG,90.7
GCAAACTTGTTATTGCACGTTAAGTTTTGGGCTCAAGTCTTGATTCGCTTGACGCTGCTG,120
